Assay results collected from several papers.
Compare with care: the assays were run in different laboratories. Values joined by “and” are separate records of one study, mostly repeats; a detail may differ. Numbers after ± are the reported error.
PFF0160c E182D: Dihydroorotate dehydrogenase (quinone), mitochondrial (PFF0160c, Plasmodium falciparum, UniProt Q08210, E182D)
ACHE: Acetylcholinesterase (ACHE, Homo sapiens, UniProt P22303)
Sequence of UniProt Q007T0 (whole entry, looked up): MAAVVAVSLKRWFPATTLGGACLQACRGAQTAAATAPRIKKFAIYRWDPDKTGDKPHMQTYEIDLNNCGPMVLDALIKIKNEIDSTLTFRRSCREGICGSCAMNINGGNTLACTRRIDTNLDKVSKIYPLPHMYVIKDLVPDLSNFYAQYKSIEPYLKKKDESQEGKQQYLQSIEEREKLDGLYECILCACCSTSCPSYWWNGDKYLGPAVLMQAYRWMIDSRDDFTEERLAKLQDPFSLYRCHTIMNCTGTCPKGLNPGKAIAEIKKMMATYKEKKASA
Sequence of UniProt D0VWV4 (whole entry, looked up): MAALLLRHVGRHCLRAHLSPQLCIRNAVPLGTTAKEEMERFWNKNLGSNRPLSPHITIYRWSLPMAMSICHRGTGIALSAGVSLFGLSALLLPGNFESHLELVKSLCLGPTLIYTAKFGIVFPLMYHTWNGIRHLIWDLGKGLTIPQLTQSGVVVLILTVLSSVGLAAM
Sequence of UniProt A5GZW8 (whole entry, looked up): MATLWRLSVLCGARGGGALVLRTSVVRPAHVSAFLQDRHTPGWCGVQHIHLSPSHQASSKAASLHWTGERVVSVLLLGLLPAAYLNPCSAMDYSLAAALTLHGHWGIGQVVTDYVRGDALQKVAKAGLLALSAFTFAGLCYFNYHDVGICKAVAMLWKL
Sequence of UniProt P22303 (whole entry, looked up): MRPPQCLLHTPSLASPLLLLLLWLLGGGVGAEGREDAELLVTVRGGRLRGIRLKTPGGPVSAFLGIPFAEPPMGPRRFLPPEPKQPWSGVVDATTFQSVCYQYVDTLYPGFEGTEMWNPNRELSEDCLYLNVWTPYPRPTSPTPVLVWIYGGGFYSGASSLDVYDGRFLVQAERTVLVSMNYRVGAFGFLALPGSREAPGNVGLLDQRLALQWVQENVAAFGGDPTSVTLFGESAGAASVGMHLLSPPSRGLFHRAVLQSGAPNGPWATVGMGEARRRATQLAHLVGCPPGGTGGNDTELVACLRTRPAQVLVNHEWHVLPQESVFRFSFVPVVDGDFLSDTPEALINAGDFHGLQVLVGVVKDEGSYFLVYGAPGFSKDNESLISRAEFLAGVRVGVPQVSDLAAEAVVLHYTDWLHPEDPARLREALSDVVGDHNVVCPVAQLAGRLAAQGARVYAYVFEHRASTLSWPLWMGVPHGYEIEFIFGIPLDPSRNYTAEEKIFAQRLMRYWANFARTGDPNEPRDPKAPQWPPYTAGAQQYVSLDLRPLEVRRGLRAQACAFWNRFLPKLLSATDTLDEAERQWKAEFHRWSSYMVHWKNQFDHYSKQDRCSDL
Sequence of UniProt P43088 (whole entry, looked up): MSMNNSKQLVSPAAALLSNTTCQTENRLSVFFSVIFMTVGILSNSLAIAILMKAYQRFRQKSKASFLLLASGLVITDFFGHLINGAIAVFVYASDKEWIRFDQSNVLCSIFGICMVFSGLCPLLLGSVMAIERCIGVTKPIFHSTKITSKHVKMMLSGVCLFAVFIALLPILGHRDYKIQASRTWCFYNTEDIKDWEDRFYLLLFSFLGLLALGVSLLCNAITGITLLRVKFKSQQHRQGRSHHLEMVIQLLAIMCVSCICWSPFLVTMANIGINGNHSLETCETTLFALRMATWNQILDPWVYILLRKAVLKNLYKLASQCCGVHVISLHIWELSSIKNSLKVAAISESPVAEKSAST
Sequence of UniProt Q15758 (whole entry, looked up): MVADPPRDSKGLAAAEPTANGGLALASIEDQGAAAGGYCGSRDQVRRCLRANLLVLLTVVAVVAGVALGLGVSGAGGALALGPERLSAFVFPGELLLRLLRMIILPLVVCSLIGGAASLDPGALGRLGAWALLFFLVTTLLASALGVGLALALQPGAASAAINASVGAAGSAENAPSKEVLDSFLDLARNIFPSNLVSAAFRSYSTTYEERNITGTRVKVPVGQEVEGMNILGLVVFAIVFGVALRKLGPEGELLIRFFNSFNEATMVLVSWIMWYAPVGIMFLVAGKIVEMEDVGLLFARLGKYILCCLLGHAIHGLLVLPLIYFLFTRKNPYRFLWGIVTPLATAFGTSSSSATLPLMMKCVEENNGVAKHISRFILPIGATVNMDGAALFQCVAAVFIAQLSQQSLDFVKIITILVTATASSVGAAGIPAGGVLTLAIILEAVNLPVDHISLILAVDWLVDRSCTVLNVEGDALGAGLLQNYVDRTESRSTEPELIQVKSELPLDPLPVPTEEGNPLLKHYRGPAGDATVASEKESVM
Sequence of UniProt P36544 (whole entry, looked up): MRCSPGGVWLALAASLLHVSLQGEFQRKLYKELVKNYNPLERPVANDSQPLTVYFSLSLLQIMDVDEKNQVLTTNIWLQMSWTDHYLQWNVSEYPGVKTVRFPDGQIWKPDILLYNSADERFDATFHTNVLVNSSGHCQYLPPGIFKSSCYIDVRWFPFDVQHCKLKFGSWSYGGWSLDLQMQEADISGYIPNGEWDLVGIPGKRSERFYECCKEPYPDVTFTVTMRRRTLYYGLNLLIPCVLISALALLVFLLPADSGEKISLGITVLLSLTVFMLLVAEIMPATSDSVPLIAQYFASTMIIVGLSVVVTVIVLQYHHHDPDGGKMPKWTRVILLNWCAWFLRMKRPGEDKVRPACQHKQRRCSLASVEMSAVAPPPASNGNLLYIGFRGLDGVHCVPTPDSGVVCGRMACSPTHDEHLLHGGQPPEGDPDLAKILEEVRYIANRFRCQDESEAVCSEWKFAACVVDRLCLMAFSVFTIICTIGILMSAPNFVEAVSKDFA
Sequence of UniProt Q15831 (whole entry, looked up): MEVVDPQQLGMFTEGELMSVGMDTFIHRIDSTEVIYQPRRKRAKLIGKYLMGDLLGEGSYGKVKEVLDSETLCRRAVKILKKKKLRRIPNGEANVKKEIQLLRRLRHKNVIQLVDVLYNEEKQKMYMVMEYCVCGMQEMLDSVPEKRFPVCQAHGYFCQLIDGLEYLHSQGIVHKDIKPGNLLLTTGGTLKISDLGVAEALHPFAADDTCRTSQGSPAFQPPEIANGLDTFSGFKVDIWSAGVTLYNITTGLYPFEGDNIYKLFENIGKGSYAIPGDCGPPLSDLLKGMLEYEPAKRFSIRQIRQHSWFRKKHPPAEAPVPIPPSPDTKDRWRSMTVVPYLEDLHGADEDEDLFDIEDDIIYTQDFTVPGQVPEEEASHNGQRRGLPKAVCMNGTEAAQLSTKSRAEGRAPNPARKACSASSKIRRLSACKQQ
Sequence of UniProt P46095 (whole entry, looked up): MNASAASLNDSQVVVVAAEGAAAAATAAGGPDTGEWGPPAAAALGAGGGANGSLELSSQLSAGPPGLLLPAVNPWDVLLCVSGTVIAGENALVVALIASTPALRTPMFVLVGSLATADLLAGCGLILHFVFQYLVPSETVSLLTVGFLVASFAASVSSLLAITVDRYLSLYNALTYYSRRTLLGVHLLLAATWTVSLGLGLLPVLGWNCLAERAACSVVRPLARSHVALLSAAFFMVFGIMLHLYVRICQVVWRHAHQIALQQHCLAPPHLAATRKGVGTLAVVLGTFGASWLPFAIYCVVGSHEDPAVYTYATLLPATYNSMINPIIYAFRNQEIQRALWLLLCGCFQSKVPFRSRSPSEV
Sequence of UniProt Q9H3Y6 (whole entry, looked up): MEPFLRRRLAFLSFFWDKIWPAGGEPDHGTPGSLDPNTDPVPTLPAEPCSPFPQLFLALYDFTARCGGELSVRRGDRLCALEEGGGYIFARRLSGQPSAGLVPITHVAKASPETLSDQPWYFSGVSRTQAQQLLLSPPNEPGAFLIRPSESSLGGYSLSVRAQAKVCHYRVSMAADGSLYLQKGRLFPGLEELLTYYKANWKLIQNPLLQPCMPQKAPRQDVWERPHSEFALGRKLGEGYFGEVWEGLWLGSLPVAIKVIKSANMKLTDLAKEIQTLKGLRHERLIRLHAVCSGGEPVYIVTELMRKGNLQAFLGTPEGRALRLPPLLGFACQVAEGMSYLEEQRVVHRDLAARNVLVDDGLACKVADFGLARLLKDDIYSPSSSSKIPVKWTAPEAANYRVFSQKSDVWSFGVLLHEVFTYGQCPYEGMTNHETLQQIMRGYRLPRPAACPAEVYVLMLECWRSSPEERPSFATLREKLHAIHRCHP
Sequence of UniProt Q96S44 (whole entry, looked up): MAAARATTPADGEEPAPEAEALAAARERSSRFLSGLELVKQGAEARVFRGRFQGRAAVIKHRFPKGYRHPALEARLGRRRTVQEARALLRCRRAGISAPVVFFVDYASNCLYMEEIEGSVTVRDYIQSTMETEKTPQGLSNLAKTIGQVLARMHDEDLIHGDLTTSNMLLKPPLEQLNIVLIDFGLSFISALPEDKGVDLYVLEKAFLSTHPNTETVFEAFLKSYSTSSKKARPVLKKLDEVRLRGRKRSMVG
Sequence of UniProt Q8N752 (whole entry, looked up): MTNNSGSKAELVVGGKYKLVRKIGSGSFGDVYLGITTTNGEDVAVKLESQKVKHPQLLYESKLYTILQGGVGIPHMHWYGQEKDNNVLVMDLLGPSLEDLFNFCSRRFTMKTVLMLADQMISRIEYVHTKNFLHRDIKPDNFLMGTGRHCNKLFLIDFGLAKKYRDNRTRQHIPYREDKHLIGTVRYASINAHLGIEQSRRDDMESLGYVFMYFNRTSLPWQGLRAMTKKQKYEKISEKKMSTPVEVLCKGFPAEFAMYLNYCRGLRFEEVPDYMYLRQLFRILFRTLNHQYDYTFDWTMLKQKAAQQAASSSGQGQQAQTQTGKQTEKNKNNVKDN
Sequence of UniProt Q92633 (whole entry, looked up): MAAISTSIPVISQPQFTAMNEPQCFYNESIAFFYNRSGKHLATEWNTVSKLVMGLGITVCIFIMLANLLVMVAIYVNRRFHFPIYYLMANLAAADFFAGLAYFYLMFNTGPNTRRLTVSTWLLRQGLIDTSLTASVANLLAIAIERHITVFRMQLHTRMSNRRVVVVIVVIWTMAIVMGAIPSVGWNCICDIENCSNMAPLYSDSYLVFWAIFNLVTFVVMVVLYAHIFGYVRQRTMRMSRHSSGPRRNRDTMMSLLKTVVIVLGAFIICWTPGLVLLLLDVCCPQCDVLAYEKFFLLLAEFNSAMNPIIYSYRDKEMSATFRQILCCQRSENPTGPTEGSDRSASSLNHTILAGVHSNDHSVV

O=C(Nc1cccc(CN2CCN(C(=O)c3ccccc3)CC2)c1)c1cccs1.O=C(O)C(F)(F)F
IC50 ratio (PFF0160c E182D; enzyme activity, DCIP colorimetric; baseline: E182D mutant over wild type): 4.9

Clc1cc2c(cc1Cl)Oc1cc(Cl)c(Cl)cc1O2
EC80 (Uncharacterized protein (Takifugu rubripes, UniProt Q4JHL2); reporter gene, agonist, dual-luciferase; COS-7; 24 h): 0.00172 ± 0.00087 µM

CC(C)(C)C(=O)C1C(=O)c2ccccc2C1=O
activity (Bile acid receptor (NR1H4, Homo sapiens, UniProt Q96RI1); concentration not given): inactive

COC(=O)C1=CNC=C(C(=O)OC)C1c1ccc(Cl)c([N+](=O)[O-])c1
IC50 ratio (PFF0160c E182D; enzyme activity, DCIP colorimetric; baseline: E182D mutant over wild type): 1.2

O=C(Nc1ccccc1)OCC(CN1CCCCC1)OC(=O)Nc1ccccc1 (stereo not drawn)
activity class (ACHE; biochemical; concentration not given): inactive

COc1ccc(N2C(=O)N(c3c(C)cccc3Cl)Cc3cnc(Nc4ccc(C5CCN(C)CC5)cc4OC)nc32)nc1
inhibition (Tyrosine-protein kinase Srms (SRMS, Homo sapiens, UniProt Q9H3Y6); kinase activity; 0.5 µM): 53%

[2H]c1c([2H])c([C@]2([2H])CCCN2C(=O)C(C)(C)Oc2ccc3cn[nH]c3c2)c([2H])c([2H])c1C([2H])([2H])[2H]
remaining binding (Serine/threonine-protein kinase STK11 (STK11, Homo sapiens, UniProt Q15831); KINOMEscan; 1 µM; baseline: DMSO control): 86%

Nc1ncnc2c1ncn2[C@@H]1O[C@H](COP(=O)(O)OP(=O)(O)NP(=O)(O)O)[C@@H](O)[C@H]1O
-TΔS (Cell cycle histidine kinase CckA, G318A; cytoplasmic region (Caulobacter vibrioides, UniProt Q9X688, G318A); ITC; 12 °C, without c-di-GMP): -1.2 kcal/mol

COc1cc(/C=C/c2ccc(O)cc2)cc(OC)c1
-T∆S (O-methyltransferase (Sorghum bicolor, UniProt A0A1B6PFV1, W279A); isothermal titration calorimetry; apo protein): 3.36 kcal/mol

c1ccc2c3c(ccc2c1)-c1cccc2cccc-3c12
fold change (Aryl hydrocarbon receptor (Danio rerio, UniProt Q9YGV3); reporter gene, agonist, luciferase reporter; ZF-4; 41.15 µM; baseline: vehicle control): 11

COc1ncccc1-c1cnn2ccc(N3CCN(C(=O)OC(C)C)CC3)nc12
remaining binding (Misshapen-like kinase 1 (MINK1, Homo sapiens, UniProt Q8N4C8); KINOMEscan binding; 1 µM; baseline: untreated control): 96%

C[C@H]1CN(c2n[nH]c3nc(N[C@H]4CC[C@H](NS(=O)(=O)CCC(F)(F)F)CC4)ncc23)CCO1
relative abundance (EKC/KEOPS complex subunit TP53RK (TP53RK, Homo sapiens, UniProt Q96S44); inhibitor, Kinobeads competition profiling; 0.032 µM; baseline: vehicle): 1.08

CN1CCN(c2cc(-c3ccncc3)c(-c3ccc4ccccc4c3)nn2)CC1
inhibition (Lysophosphatidic acid receptor 1 (LPAR1, Homo sapiens, UniProt Q92633); 10 µM): -16.7%

O=C(Nc1cnccc1Cl)N1CCN(Cc2ccc3c(c2)OC(F)(F)O3)CC1
inhibition (Prostaglandin F2-alpha receptor (PTGFR, Homo sapiens, UniProt P43088); radioligand binding, inhibitor; 50 µM, human, together with: [3H]PGF2alpha): 3%

COc1ccc2[nH]c3c(c2c1)CCN(C)CC3.Cl
Hill coefficient (Neuronal acetylcholine receptor subunit alpha-7 (CHRNA7, Homo sapiens, UniProt P36544); ion current, inhibitor, two-electrode voltage clamp; Xenopus laevis oocytes; together with: 100 µM acetylcholine): 1.8 ± 0.1

COc1cc(N)c(Cl)cc1C(=O)NC1CN2CCC1CC2 (stereo not drawn)
log2 fold change (G-protein coupled receptor 6 (Homo sapiens, UniProt P46095); β-arrestin recruitment, TANGO luminescence, item: GPR6; concentration not given; baseline: basal luminescence): 0.07

O=C(Nc1cccc(CN2CCN(C(=O)c3cccc(Cl)c3)CC2)c1)c1cccs1.O=C(O)C(F)(F)F
IC50 ratio (PFF0160c E182D; enzyme activity, DCIP colorimetric; baseline: E182D mutant over wild type): 4

Cc1ccc2c(c1)C=CC21CCN(C2Cc3ccccc3CC2O)CC1 (racemic)
selectivity ratio (Vesicular acetylcholine transporter (Rattus norvegicus, UniProt Q62666); baseline: Ki sigma1 over Ki VAChT): 0.24

COc1ccc(Nc2nn3c(-c4ccccc4)ccnc3c2C(=O)Nc2ccccc2)cc1
band share (α-amylase isoenzymes; native PAGE densitometry, item: α-amy2 band; equal to IC50): 100%

COc1cc2nccc(Oc3ccc(NC(=O)c4cc5c(n(-c6ccccc6)c4=O)CCCC5=O)nc3)c2cc1OC
selectivity ratio (Tyrosine-protein kinase Lyn (LYN, Homo sapiens, UniProt P07948); cell viability, CellTiter-Glo; Ba/F3 expressing recombinant kinase; baseline: LYN IC50 over AXL IC50): > 100

Nc1ncc(-c2nc(N3CCOCC3)nc(N3CCOCC3)n2)c(C(F)F)n1
remaining binding (Casein kinase I isoform alpha-like (CSNK1A1L, Homo sapiens, UniProt Q8N752); KINOMEscan; 10 µM): 74%

C=C(CN(C(=O)c1c(C(F)F)nn(C)c1F)C1CC1)c1ccc(Cl)cc1Cl
reaction velocity (SDHD/SDHC/SDHB (Sus scrofa, UniProt A5GZW8+D0VWV4+Q007T0); enzyme activity, inhibitor, DCIP reduction; pig; 0.06 µM, together with: DCIP 80 µM): 0.021 µM/s and 0.0202 µM/s

NC(C(=O)O)C(O)COC(=O)c1ccc(-c2ccccc2)cc1 (stereo not drawn)
apparent affinity ratio (Neutral amino acid transporter B(0) (SLC1A5, Homo sapiens, UniProt Q15758); leak anion current, whole-cell patch clamp; HEK293 transfected; baseline: compound over L-serine): ~35 fold

O=C(c1ccc(Cl)cc1)N1CCN2C(=O)N(OC(=O)N3CCOc4ccccc43)C(=O)C2C1 (stereo not drawn)
median ratio (Fatty-acid amide hydrolase 1 (FAAH, Homo sapiens, UniProt O00519); enzyme activity, inhibitor, MS-based ABPP; SW-620 in situ; 10 µM, 2 h, 37 °C; baseline: compound over DMSO, lower = stronger inhibition): 1.01

Cc1cn([C@H]2C[C@H](O)[C@@H](COP(=O)(O)OP(=O)(O)OP(=O)(O)O)O2)c(=O)[nH]c1=O
maximum incorporation rate (DNA polymerase I, Klenow fragment (polA, Escherichia coli, UniProt P00582, C907S/D424A/E710Q/L744C); nucleotide incorporation, substrate, single-turnover rapid quench; together with: radiolabelled primer-template DNA): 0.23 ± 0.01 s⁻¹

CNc1cc(OC)c(C(=O)NC2CCN(Cc3ccccc3)C2C)cc1Cl (stereo not drawn)
activity class (ACHE; biochemical; concentration not given): inactive

Clc1ccc(-c2ccccc2Cl)cc1
IC25 (Aryl hydrocarbon receptor (AHR, Homo sapiens, UniProt P35869); reporter gene, antagonist; AZ-AHR cells; 24 h, together with: TCDD 4.5 nM): 14 µM

Some of these lines once more:
[2H]c1c([2H])c([C@]2([2H])CCCN2C(=O)C(C)(C)Oc2ccc3cn[nH]c3c2)c([2H])c([2H])c1C([2H])([2H])[2H]
remaining binding (Serine/threonine-protein kinase STK11 (STK11, Homo sapiens, UniProt Q15831); KINOMEscan; 1 µM; baseline: DMSO control): 86%

Clc1cc2c(cc1Cl)Oc1cc(Cl)c(Cl)cc1O2
EC80 (Uncharacterized protein (Takifugu rubripes, UniProt Q4JHL2); reporter gene, agonist, dual-luciferase; COS-7; 24 h): 0.00172 ± 0.00087 µM

Cc1ccc2c(c1)C=CC21CCN(C2Cc3ccccc3CC2O)CC1 (racemic)
selectivity ratio (Vesicular acetylcholine transporter (Rattus norvegicus, UniProt Q62666); baseline: Ki sigma1 over Ki VAChT): 0.24
